Experimental data pooled from the literature.
Numbered parts are unrelated; each lists some results of a single study. Changes are numbered by the printed parent chain.

Study 1
Molecule: PhoQ, residues 284 288 289 292 302 303 SSLVEF
Method: Sort-seq
Item: YFP reporter
Medium: E. coli
Setting: PhoQ-PhoP variant library
Added: 10 µM Mg2+
Relative to: high Mg2+ state
Direction: higher = stronger signaling
Measurement: fold induction
PhoP, residues 12 14 15 18 19 TQAML (Escherichia coli, UniProt P23836): 13.5
PhoP, residues 12 14 15 18 19 NQCAL (Escherichia coli, UniProt P23836): 3.87
PhoP, residues 12 14 15 18 19 LHTVL (Escherichia coli, UniProt P23836): 12.6

Study 2
Target: CCNE1, cyclin fold, Cln2 fusion (human)
Method: yeast growth competition, sequencing
Medium: yeast
Setting: weak parent motif
Relative to: not given
Direction: higher = stronger binding
Measurement: normalised enrichment score
Starting sequence: SLBP docking peptide (human); ARYKRKLLINDFG
ARTKRKLLINDFG [Y3T]: 0.384
ARYKRKLLTNDFG [I9T]: 0.746
ARYARKLLINDFG [K4A]: 0.478
ARYKRKLLANDFG [I9A]: 0.202
LRYKRKLLINDFG [A1L]: -0.1
AKYKRKLLINDFG [R2K]: 1.03
ARYKRKLFINDFG [L8F]: 2.92
ARYKRKLLINVFG [D11V]: 1.04
ARYKRKLLIGDFG [N10G]: 1.65
ARYKRKLQINDFG [L8Q]: 0.31
ARYKRKLLIQDFG [N10Q]: 0.474
ARYKRKLLINIFG [D11I]: 1.41
ARYKDKLLINDFG [R5D]: 0.109

Study 3
Target: Histone acetyltransferase KAT6A, both winged helices, GST fusion (KAT6A, Homo sapiens, UniProt Q92794, residues 1-181)
Method: protein binding microarray
Form: double-stranded DNA, one strand shown
Medium: in vitro
Tested at: not given
Setting: 8-mer, flanks averaged, mean of 2 arrays, mostly near background
Relative to: not given
Direction: higher = stronger binding
Measurement: E-score
Construct (chain): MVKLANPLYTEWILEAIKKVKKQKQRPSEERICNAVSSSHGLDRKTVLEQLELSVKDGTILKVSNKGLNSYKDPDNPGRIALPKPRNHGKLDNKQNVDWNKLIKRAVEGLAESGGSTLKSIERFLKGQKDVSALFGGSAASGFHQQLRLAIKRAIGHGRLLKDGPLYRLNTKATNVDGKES
ACTTCTCG: 0.0321
AGTAGACA: -0.102
ACTTCTAT: -0.291
AAATCTTA: -0.131
CGTAAATC: 0.16
ATCTATCC: -0.0453
CCAGGGGG: -0.203
CTTGTACC: -0.0991
TATGGGGA: -0.12
ATAGCGTA: 0.165
CAATGTCC: -0.0655
AAATGGAT: -0.0991

Study 4
Target: PABPC1L2, full length, GST fusion (mouse, UniProt A0ABA7IW68)
Method: RNAcompete
Form: RNA
Medium: in vitro
Tested at: 20 nM
Setting: 7-mer, probes averaged, single round
Relative to: mean of 7-mers
Direction: higher = stronger binding
Measurement: 7-mer Z-score
Residues (chain): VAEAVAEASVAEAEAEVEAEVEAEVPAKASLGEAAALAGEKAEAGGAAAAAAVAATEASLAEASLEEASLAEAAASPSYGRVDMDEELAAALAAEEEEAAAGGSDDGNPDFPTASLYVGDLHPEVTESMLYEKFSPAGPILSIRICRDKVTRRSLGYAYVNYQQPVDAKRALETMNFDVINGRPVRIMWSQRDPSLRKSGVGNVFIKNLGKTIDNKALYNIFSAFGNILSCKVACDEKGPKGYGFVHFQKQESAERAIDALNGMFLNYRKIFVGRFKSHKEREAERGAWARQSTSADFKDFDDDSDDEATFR
UGGGUAU: -0.0699
CUCAGCU: -0.403
GCUAUUC: -0.315
AAAGAAG: 2.82
CGCCUAC: -0.313
CGUUGUA: -0.313
AUGCAUU: -0.193
UUUAUUG: 0.131
UAUUCUC: -0.322
CACCCGG: -0.159
CCAACAG: -0.112
AUCCCCA: -0.34
UGUUGCA: -0.142
GCAUUGG: 0.0315
CACGAGC: -0.122
UUUGCUG: -0.427
